Measured values pooled from the literature.
A part holds a random share of what one study measured.

Study 1
Target: Transcription factor Sp1 (SP1, Homo sapiens, UniProt P08047, residues 1-785, full length assumed)
UniProt P08047, sequence (whole entry, looked up): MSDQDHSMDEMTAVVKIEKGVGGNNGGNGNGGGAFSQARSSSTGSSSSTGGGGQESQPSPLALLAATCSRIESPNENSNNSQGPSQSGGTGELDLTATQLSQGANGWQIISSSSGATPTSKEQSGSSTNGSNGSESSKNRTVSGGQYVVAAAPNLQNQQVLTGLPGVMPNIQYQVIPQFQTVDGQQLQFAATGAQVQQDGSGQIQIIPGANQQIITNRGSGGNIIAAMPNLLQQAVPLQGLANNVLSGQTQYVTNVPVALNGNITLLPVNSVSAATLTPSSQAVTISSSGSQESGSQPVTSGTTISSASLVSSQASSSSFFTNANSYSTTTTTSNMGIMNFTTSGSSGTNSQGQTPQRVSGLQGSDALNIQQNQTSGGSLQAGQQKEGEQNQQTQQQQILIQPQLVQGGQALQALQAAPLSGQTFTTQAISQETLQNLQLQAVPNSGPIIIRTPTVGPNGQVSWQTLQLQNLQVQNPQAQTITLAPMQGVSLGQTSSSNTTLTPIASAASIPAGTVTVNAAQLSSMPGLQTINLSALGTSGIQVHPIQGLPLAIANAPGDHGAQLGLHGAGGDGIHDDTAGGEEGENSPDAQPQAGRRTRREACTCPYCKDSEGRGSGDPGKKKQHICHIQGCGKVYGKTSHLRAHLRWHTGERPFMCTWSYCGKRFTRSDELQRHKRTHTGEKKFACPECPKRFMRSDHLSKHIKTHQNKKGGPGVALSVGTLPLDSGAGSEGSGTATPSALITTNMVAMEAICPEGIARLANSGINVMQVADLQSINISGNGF
Technique: protein-binding microarray
Form: double-stranded DNA, one strand shown
Medium: in vitro
Concentration: not given
Setting: k-mer, scored over probes, only values ≥0.25
Direction: higher = stronger binding
With `CCCTTCCC` the E-score was 0.309.
With `CCGCCCCA` the E-score was 0.487.
With `AGTATACT` the E-score was 0.268.
`AAGGATAT` gave an E-score of 0.259.
With `GTGGGGAA` the E-score was 0.371.
`TAATACTA` gave an E-score of 0.27.

Study 2
Target: Histone acetyltransferase KAT6A, both winged helices, GST fusion (KAT6A, Homo sapiens, UniProt Q92794, residues 1-181)
Technique: protein binding microarray
Form: double-stranded DNA, one strand shown
Medium: in vitro
Concentration: not given
Setting: 8-mer, flanks averaged, mean of 2 arrays, mostly near background
Relative to: not given
Direction: higher = stronger binding
Target sequence (chain): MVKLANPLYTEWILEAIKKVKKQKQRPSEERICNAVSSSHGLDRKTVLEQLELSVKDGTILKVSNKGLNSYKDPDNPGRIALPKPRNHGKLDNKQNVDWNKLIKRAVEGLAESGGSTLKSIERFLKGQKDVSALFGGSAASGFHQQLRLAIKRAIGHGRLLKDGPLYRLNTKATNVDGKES
With `CGGTCATC` the E-score was 0.159.
The E-score of `AGAATCCG` is reported as 0.0144.
`CAACCACG` gave an E-score of 0.00038.
`GAACGTCC` gave an E-score of 0.0156.
For `AGTAGTGG`, the E-score was -0.118.
With `GGCCTATA` the E-score was -0.086.

Study 3
Target: Sal-like protein 4, full length isoform B (SALL4, Homo sapiens, UniProt Q9UJQ4-2, residues 1-616)
Technique: universal PBM
Form: double-stranded DNA, one strand shown
Medium: in vitro
Concentration: not given
Setting: 8-mer, flanks averaged, mean of replicates
Direction: higher = stronger binding
With `ACTTGGTA` the E-score was 0.168.
The E-score of `ACTTCCAA` is reported as 0.0503.
`CCTTGTAA` has an E-score of 0.301.
`GTCTTCAA` gave an E-score of 0.118.

Mixed results
The fold induction of `PhoQ, residues 284 288 289 292 302 303 ASVMEA` is reported as 3.33 (PhoP, residues 12 14 15 18 19 AWHSL (Escherichia coli, UniProt P23836); Sort-seq, refers to: YFP reporter; E. coli; PhoQ-PhoP variant library, together with: 10 µM Mg2+; relative to: high Mg2+ state, higher = stronger signaling).

A few entries again (study 2):
For `AGTAGTGG`, the E-score was -0.118.
